Measured values pooled from the literature.
A part holds a random share of what one study measured. Values joined by “and” are separate records of one study, mostly repeats; a detail may differ.
Sequence of UniProt P31645 (whole entry, looked up): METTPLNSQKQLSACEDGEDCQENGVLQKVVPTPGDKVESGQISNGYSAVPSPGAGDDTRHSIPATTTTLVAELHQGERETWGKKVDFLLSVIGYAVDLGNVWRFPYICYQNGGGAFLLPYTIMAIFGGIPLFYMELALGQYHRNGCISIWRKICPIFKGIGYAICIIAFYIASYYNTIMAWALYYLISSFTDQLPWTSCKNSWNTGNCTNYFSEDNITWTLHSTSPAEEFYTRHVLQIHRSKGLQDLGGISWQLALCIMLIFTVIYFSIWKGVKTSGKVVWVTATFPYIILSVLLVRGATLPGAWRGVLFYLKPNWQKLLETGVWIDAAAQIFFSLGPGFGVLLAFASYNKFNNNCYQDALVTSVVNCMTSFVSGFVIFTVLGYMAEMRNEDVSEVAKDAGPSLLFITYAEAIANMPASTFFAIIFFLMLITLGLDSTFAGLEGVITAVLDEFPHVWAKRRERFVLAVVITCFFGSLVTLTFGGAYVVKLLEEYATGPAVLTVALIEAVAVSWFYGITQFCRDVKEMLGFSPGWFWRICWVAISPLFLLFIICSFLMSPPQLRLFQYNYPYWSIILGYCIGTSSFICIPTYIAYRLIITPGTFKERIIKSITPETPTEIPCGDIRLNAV
Sequence of UniProt P9WI81 (whole entry, looked up): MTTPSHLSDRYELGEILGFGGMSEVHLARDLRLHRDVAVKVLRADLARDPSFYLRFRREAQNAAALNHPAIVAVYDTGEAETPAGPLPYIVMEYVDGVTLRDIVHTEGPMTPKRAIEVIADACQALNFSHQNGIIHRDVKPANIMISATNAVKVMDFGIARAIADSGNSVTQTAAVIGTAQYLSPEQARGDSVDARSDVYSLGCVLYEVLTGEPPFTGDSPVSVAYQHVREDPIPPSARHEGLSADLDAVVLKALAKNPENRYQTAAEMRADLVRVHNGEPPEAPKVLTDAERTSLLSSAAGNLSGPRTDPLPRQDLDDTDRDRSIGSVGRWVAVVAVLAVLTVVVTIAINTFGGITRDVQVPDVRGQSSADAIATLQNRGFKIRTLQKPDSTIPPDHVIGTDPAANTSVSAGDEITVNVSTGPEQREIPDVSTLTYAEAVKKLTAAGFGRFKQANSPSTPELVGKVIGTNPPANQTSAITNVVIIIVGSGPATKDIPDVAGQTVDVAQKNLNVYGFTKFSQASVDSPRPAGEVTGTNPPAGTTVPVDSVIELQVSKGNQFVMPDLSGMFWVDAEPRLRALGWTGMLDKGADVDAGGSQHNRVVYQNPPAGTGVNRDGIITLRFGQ

Study 1 — cell line: HEK-293T; read-out: pseudovirus infection; technique: FDA-approved drug library counter-screen; organism: VSV pseudotyped with VSV-G; concentration: 10 µM; time: 16 h; baseline: vehicle-treated; endpoint: GFP-positive cells
CCCCOc1cc(C(=O)NCCN(CC)CC)c2ccccc2n1: 108%
COc1cc(C(=O)NS(=O)(=O)c2ccccc2C)ccc1Cc1cn(C)c2ccc(NC(=O)OC3CCCC3)cc12: 117%
Nc1ncnc2c1ncn2[C@@H]1O[C@H](CO)[C@@H](O)[C@H]1O: 94%
CC(O)(CS(=O)(=O)c1ccc(F)cc1)C(=O)Nc1ccc(C#N)c(C(F)(F)F)c1 (stereo not shown): 126%
Nc1nc2c(ncn2COCCO)c(=O)[nH]1: 95%
N#C[C@@H]1C[C@@H]2C[C@@H]2N1C(=O)[C@@H](N)C12CC3CC(CC(O)(C3)C1)C2: 109%

Study 2 — read-out: enzyme activity; action: inhibitor; concentration: 77 µM; baseline: untreated; endpoint: remaining activity
Target: DNA polymerase theta, ATPase domain (POLQ, Homo sapiens, UniProt O75417)
Sequence of UniProt O75417 (whole entry, unmodified, looked up): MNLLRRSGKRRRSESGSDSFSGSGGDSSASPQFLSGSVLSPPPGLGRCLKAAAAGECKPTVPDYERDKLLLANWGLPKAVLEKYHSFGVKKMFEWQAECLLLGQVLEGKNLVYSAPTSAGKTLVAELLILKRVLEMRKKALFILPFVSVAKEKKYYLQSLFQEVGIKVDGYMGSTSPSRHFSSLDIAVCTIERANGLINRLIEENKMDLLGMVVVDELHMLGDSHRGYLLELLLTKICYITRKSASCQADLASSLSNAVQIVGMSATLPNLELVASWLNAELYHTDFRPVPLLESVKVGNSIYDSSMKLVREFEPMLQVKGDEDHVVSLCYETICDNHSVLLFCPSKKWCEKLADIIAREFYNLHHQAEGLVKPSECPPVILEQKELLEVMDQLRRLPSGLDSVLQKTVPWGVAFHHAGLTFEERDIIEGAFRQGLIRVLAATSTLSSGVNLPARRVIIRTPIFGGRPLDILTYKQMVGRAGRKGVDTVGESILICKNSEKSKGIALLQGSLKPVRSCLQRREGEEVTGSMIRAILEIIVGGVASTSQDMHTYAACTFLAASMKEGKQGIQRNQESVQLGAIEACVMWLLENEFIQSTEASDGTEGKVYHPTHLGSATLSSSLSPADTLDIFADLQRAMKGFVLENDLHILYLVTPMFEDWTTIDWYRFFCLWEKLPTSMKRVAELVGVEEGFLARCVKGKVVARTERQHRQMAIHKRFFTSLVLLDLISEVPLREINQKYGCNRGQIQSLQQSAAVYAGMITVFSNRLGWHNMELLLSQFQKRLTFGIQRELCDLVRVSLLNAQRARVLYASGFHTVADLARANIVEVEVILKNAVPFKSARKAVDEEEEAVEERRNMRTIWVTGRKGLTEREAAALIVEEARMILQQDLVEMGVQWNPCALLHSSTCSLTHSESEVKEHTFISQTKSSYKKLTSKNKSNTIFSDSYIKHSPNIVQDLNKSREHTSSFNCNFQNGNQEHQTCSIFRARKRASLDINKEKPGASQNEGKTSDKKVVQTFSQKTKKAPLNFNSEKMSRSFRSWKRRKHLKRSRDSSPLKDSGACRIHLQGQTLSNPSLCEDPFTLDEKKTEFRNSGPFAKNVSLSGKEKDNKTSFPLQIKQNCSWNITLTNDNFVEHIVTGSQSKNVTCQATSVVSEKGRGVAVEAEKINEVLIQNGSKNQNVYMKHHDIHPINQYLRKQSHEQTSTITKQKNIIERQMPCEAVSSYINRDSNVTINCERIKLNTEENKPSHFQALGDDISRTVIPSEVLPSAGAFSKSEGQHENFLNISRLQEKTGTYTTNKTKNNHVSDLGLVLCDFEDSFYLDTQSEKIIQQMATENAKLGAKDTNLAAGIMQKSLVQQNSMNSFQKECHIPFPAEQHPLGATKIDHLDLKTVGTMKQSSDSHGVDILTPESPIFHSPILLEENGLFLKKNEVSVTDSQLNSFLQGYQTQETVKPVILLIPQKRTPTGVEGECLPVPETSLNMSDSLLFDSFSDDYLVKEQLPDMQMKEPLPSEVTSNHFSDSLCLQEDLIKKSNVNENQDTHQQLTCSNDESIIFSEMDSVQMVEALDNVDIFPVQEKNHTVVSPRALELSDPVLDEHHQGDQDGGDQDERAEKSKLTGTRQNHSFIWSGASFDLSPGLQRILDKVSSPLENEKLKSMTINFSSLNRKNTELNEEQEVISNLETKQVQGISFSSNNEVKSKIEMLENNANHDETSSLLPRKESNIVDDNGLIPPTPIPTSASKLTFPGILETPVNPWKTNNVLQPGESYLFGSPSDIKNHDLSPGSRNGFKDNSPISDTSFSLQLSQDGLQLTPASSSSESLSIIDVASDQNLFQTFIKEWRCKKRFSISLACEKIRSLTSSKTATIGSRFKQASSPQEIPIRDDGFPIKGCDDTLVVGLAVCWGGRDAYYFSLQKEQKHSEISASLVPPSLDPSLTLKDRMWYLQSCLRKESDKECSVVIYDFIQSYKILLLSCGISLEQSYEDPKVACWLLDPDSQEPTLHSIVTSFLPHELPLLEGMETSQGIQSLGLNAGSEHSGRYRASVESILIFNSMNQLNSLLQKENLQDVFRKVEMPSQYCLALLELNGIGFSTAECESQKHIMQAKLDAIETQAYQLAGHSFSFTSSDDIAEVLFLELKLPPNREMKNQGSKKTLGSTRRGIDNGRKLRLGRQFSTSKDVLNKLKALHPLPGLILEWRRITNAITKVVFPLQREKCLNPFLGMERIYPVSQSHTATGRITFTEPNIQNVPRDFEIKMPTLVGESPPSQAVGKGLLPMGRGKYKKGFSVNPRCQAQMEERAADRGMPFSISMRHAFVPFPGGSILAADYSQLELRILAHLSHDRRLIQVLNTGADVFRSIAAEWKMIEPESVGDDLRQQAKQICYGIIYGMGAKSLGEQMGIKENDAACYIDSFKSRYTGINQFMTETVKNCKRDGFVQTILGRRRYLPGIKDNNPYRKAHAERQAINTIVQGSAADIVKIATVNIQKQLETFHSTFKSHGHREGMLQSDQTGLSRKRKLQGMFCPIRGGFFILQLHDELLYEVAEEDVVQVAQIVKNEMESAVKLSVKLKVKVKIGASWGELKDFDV
CCC1=C[C@@H]2CN3CCc4c([nH]c5ccccc45)[C@@](C(=O)OC)(C2)[C@@H]13: 99.2% and 87.5%
C[C@@H]1CC[C@H]2[C@@H](C)C(=O)O[C@@H]3O[C@@]4(C)CC[C@@H]1[C@]32OO4: 110% and 102%
Oc1ccc2c3c1O[C@H]1c4oc5ccccc5c4C[C@@]4(O)[C@@H](C2)N(CC2CC2)CC[C@]314: 102%
CN1[C@@H]2CC[C@H]1C[C@@H](OC(=O)c1cc(Cl)cc(Cl)c1)C2: 98.9%
Clc1ccc(C(OCCN2CCCCC2)c2ccccc2)cc1 (stereo not shown): 94.8%
NCC[C@H](O)C(=O)N[C@@H]1C[C@H](N)[C@@H](O[C@H]2O[C@H](CN)[C@@H](O)[C@H](O)[C@H]2N)[C@H](O[C@@H]2O[C@H](CO)[C@@H](O)[C@H]2O)[C@H]1O: 95.6%
CCN1C[C@]2(OC(=O)c3ccccc3NC(C)=O)CC[C@H](OC)[C@]34C1[C@H](C[C@H]23)[C@@]1(O)C[C@H](OC)[C@H]2C[C@@H]4[C@]1(O)[C@H]2OC: 94.4%
C=C1[C@@H]2CC[C@H]3[C@]4(C)C[C@H](O[C@H]5O[C@H](CO)[C@@H](OS(=O)(=O)O)[C@H](OS(=O)(=O)O)[C@H]5OC(=O)CC(C)C)C[C@@H](C(=O)O)[C@H]4CC[C@]3(C2)[C@H]1O: 109%
Cn1c(CCCC(=O)O)nc2cc(N(CCCl)CCCl)ccc21: 91%

Other studies, line by line
CC(=O)C1=C(C)N(c2cccc(C(F)(F)F)c2)C(=O)N[C@@H]1c1ccc(C#N)nc1
remaining binding (pknB (Mycobacterium tuberculosis, UniProt P9WI81); cell-free assay, competition with immobilised ligand; 1 µM): 82.7%

CCCCCCCCCCCCCCCCOP(=O)([O-])OCC[N+](C)(C)C
inhibition (Leishmania donovani; THP-1 intracellular amastigotes, DD8 resistant line; 0.02 µM, resistance confirmation): 1%

CNC(=O)c1cc(C(=O)NC2CC2)cn(Cc2ccccc2)c1=O
viability (normal-adjacent epithelium patient-derived organoids sample E; CellTiter-Glo; 1 µM; baseline: DMSO): 88%

O=C1NC(c2ccccn2)Sc2ccccc21 (stereo not shown)
inhibition (SLC6A4 (Homo sapiens, UniProt P31645); ligand displacement; 10 µM): -11.2%

Repeated from above (other studies, line by line):
O=C1NC(c2ccccn2)Sc2ccccc21 (stereo not shown)
inhibition (SLC6A4 (Homo sapiens, UniProt P31645); ligand displacement; 10 µM): -11.2%
